Values quoted from earlier work, collected from citations in different studies.
Compare with care: the assays were run in different laboratories. ± gives the spread as reported.

CC(=O)C(C)n1ncn(-c2ccc(N3CCN(c4ccc(OC[C@H]5CO[C@](Cn6cncn6)(c6ccc(Cl)cc6Cl)O5)cc4)CC3)cc2)c1=O (some centres unmarked)
IC50 (CYP3A4 human; inhibitor; added: midazolam): 7 nM

COc1cc([C@@H]2c3cc4c(cc3[C@@H](O[C@@H]3O[C@@H]5CO[C@@H](C)O[C@H]5[C@H](O)[C@H]3O)[C@H]3COC(=O)[C@H]23)OCO4)cc(OC)c1O
IC50 (BCRP; inhibitor): 8000 nM

O=S(=O)(O)C(F)(F)C(F)(F)C(F)(F)C(F)(F)C(F)(F)C(F)(F)C(F)(F)C(F)(F)F
IC50 (CYP1A2; inhibitor; Tox21 screening): 43700 ± 11400 nM

C=C(C)[C@@H]1CCC(C)=C[C@H]1c1c(O)cc(CCCCC)cc1O
IC50 (CYP3A5): 1650 nM

O=C(Oc1ccc(Cl)cc1)N1CCc2c([nH]c3ccc(Cl)cc23)C1c1ccc(O)cc1 (centres unmarked)
IC50 (BCRP; substrate transport, inhibitor): 1570 nM

CN1CCN(C2=Nc3cc(Cl)ccc3Nc3ccccc32)CC1
fraction unbound (mouse): 0.0113

COC(=O)[C@@H]1C[C@H](OC(C)=O)C(=O)[C@H]2[C@@]1(C)CC[C@H]1C(=O)O[C@H](c3ccoc3)C[C@]21C
Ki (kappa opioid receptor I135L): 99.1 ± 28.4 nM

O=C(O)C(F)(F)C(F)(F)C(F)(F)C(F)(F)C(F)(F)C(F)(F)C(F)(F)C(F)(F)C(F)(F)F
IC50 (CYP3A4; inhibitor; Tox21 screening): inactive

O=C(O)[C@H](c1ccccc1)[C@H]1CCCCN1
AUC(0-inf) (human, CES1 wild type, plasma; oral, 10 mg methylphenidate, single dose after breakfast, median): 609 ng·h/mL

CC(C)(C)NCc1ccc(Nc2ccnc3cc(Cl)ccc23)cc1O
IC50 (hERG channel; cell-based): 7500 nM

CCCCCOc1ccc(-c2ccc(-c3ccc(C(=O)N[C@H]4C[C@@H](O)[C@@H](O)NC(=O)[C@@H]5[C@@H](O)[C@@H](C)CN5C(=O)[C@H]([C@@H](C)O)NC(=O)[C@H]([C@H](O)[C@@H](O)c5ccc(O)cc5)NC(=O)[C@@H]5C[C@@H](O)CN5C(=O)[C@H]([C@@H](C)O)NC4=O)cc3)cc2)cc1
peripheral volume of distribution (human, invasive aspergillosis patients; dose not given, typical value): 34.1 L

C=C[C@@H]1C[C@]1(NC(=O)[C@@H]1C[C@@H]2CN1C(=O)[C@H](C(C)(C)C)NC(=O)O[C@@H]1C[C@H]1CCCCCc1nc3ccc(OC)cc3nc1O2)C(=O)NS(=O)(=O)C1CC1
IC50 (P-glycoprotein; digoxin transport, inhibitor): > 100000 nM

Cc1nc2c([nH]1)-c1ccccc1N(C(=O)c1ccc(NC(=O)c3ccccc3-c3ccccc3)cc1)CC2
IC50 (hERG (human); inhibitor): 2240 nM

FC1(F)C(F)(F)C(F)(F)C2(F)C(F)(C1(F)F)C(F)(F)C(F)(F)C1(F)C(F)(F)C(F)(F)C(F)(F)C(F)(F)C12F (centres unmarked)
IC50 (CYP1A2; inhibitor; Tox21 screening): inactive

O[C@H]1CCCN[C@@H]1CCCn1cnc2c(Cl)c(Cl)ccc21
IC50 (CYP2D6; inhibitor): 5200 nM

O=C(O)C(F)(F)C(F)(F)C(F)(F)C(F)(F)C(F)(F)C(F)(F)C(F)(F)C(F)(F)F
IC50 (CYP2C9; inhibitor; Tox21 screening): 1640 ± 690 nM

Cc1ccc(C(=O)c2cc(O)c(O)c([N+](=O)[O-])c2)cc1
fraction unbound (mouse): 0.002

Repeated from above:
CC(C)(C)NCc1ccc(Nc2ccnc3cc(Cl)ccc23)cc1O
IC50 (hERG channel; cell-based): 7500 nM

FC1(F)C(F)(F)C(F)(F)C2(F)C(F)(C1(F)F)C(F)(F)C(F)(F)C1(F)C(F)(F)C(F)(F)C(F)(F)C(F)(F)C12F (centres unmarked)
IC50 (CYP1A2; inhibitor; Tox21 screening): inactive

CC(=O)C(C)n1ncn(-c2ccc(N3CCN(c4ccc(OC[C@H]5CO[C@](Cn6cncn6)(c6ccc(Cl)cc6Cl)O5)cc4)CC3)cc2)c1=O (some centres unmarked)
IC50 (CYP3A4 human; inhibitor; added: midazolam): 7 nM
